Experimental data collected from several papers.
Compare with care: the assays were run in different laboratories. ± marks the error that the study gave.

For `O=C(Nc1nc2cccc(-c3ccc(CN4CCS(=O)(=O)CC4)cc3)n2n1)C1CC1`, “apparent central volume” read 106 L (population PK bootstrap median; human; oral, dose not given).
`C[C@H](Cn1cnc2c(N)ncnc21)OCP(=O)(O)O` has an apparent clearance of 42.2 L/h (population PK model; human, plasma; oral, final simultaneous model estimate).
`Cl.[2H]C([2H])([2H])CC(=O)c1cnc(NC(=O)C2CC2)cc1Nc1cccc(-c2ncn(C([2H])([2H])[2H])n2)c1OC`: “apparent volume at steady state” 175 L (human, non-fasted; oral, 30 mg twice daily, day 14, multiple dose, tablet, geometric mean).
For `CNC(=O)c1ccc(N2C(=S)N(c3ccc(C#N)c(C(F)(F)F)c3)C(=O)C2(C)C)cc1F`, “apparent intercompartmental clearance” read 20.6 L/h (population PK final model; human, male; oral).
`C=CC(=O)N(C)CCOc1c(N)ncnc1-c1cc(F)cc(NC(=O)c2ccc(C3CC3)cc2F)c1C` — result for “apparent clearance CL/F”: 335 L/h (human, whole blood; oral, 100 mg, single ascending dose).
`COc1cc(C(=O)NC2CCN(C)CC2)c(F)cc1Nc1ncc(C(F)(F)F)c(Oc2cccc3c2C(=O)N(C)C3)n1`: “apparent oral clearance CL/F” 180 mL/min (human patients, plasma; oral, 25 mg single dose, geometric mean).
`NC[C@@]1(CC(=O)O)[C@@H]2CC[C@H]3C[C@@H]2[C@@H]1C3`: “apparent volume of distribution unbound” 63.3 L (human, normal renal function, plasma; dose not given, geometric mean).
`COc1cc2c(Nc3ccc(Br)cc3F)ncnc2cc1OCC1CCN(C)CC1`: “apparent oral clearance” 93 ± 36 mL/min/m² (human patients, plasma; 85 mg/m^2, day 42).
`Cc1cc(C)c(CNC(=O)c2cc(Cl)c3c(c2C)O[C@@](C)([C@H]2CC[C@H](N(C)C)CC2)O3)c(=O)[nH]1` — result for “apparent peripheral volume V2/F”: 3670 L (population PK model; human; oral, dose not given).
`Cn1cc(-c2cn3nccc3c(-c3cnn([C@]4(CC#N)C[C@@H](C#N)C4)c3)n2)cn1` — result for “apparent clearance CL/F”: 63 L/h (healthy humans fasted, plasma; 3 mg single dose, geometric mean).
Under “apparent volume of distribution”, `[H]/N=C(/N)c1ccc(NCc2nc3cc(C(=O)N(CCC(=O)O)c4ccccn4)ccc3n2C)cc1` is recorded as 1960 L (healthy humans, plasma; oral, 75 mg, alone, geometric mean).
Under “apparent volume of distribution (total)”, `Cc1cc(C)c(CNC(=O)c2cc(Cl)c3c(c2C)O[C@@](C)([C@H]2CC[C@H](N(C)C)CC2)O3)c(=O)[nH]1` is recorded as 268 L (human, plasma; oral, 200 mg, cycle 1 day 15, mean).
`N[C@@H]1c2cccnc2[C@H](OC(=O)N2CCC(n3c(=O)[nH]c4ncccc43)CC2)CC[C@H]1c1cccc(F)c1F` — result for “apparent central volume”: 114 L (population PK model; human; oral, dose not given).
The apparent clearance of `CN(CC#N)C(=O)C[C@H](Nc1nc2ccccc2[nH]1)c1cccc(C(F)(F)F)c1` is reported as 13.6 ± 2.54 L/h (human; intravenous infusion, 1.5 mg/kg, 1 mg/mL formulation).
`Cn1ncnc1[C@H]1c2n[nH]c(=O)c3cc(F)cc(c23)N[C@@H]1c1ccc(F)cc1`: “apparent clearance at steady state” 4.2 ± 2 L/h (human patients, plasma; 600 µg/m2/day).
`O=C(NO)c1ccc(CN(c2cnccn2)c2cnccn2)cc1` — result for “apparent elimination half-life”: 1.6 to 4.9 h (human patients, phase I, plasma; oral, sampling up to 12 h).
For `NC(=O)N1c2ccccc2CC(=O)c2ccccc21`, the apparent clearance was 216 L/h (population PK modelling; human patients, plasma; oral, weight-scaled, with back-conversion).
For `COc1cc(Nc2ncc3c(n2)-c2ccc(Cl)cc2C(c2c(F)cccc2OC)=NC3)ccc1C(=O)O`, “apparent clearance (CL/F)” read 3.91 L/h (population PK model; human cancer patients, plasma).

Repeated from above:
For `CNC(=O)c1ccc(N2C(=S)N(c3ccc(C#N)c(C(F)(F)F)c3)C(=O)C2(C)C)cc1F`, “apparent intercompartmental clearance” read 20.6 L/h (population PK final model; human, male; oral).
